Published values of several laboratories.
A part holds a random share of what one study measured. Changes are numbered by the printed parent chain.

Set 1
Target: ABI1, truncated, D143A, DHFR fusion (Arabidopsis thaliana, UniProt P49597)
Technique: DHFR PCA, dose-response
Medium: yeast
Setting: Hill fit, mean, not affinity
With: (+)-ABA, dose series
Reading: lower = more sensitive
Endpoint: ABA EC50
Parent: PYL1, truncated, DHFR fusion (Arabidopsis thaliana, UniProt Q8VZS8); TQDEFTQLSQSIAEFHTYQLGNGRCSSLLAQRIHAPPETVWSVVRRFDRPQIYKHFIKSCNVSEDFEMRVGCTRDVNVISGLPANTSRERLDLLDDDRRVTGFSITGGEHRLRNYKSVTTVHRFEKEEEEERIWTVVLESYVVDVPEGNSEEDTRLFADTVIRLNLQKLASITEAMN
Substitution = V118L; result = 22 µM
Substitution = Q7L; result = 2.08 µM
Substitution = E152M; result = 4.43 µM
Substitution = Q51S; result = 46.6 µM
Substitution = T106A; result = 38.3 µM
Substitution = G23E; result = 10.3 µM
Substitution = N77K; result = 1.36 µM
Substitution = P37F; result = 153 µM

Set 2
Target: Prothrombin, mature alpha-thrombin (F2, Homo sapiens, UniProt P00734)
Technique: aptamer microarray, sandwich
Molecule type: DNA with 2'F-ANA
Medium: in vitro
Concentration: 200 nM
Setting: whole 15-mer aptamer, many near background
With: Cy3 exosite-II aptamer, 400 nM
Reading: higher = stronger binding
Endpoint: mean fluorescence intensity
Sequence: GGTTGGTGTGGTTGG
Modification = 2'F-ANA at 4 8 11 12 14; result = 135 a.u.
Modification = 2'F-ANA at 3 4 6 11 13 14; result = 235 a.u.
Modification = 2'F-ANA at 1 2 3 5 7 8 11 14; result = 47.2 a.u.
Modification = 2'F-ANA at 3 6 7 9 10 11 15; result = 396 a.u.
Modification = 2'F-ANA at 1 3 4 7 8 9 11 15; result = 188 a.u.
Modification = 2'F-ANA at 2 3 5 6 8 9 11 13 14; result = 50 a.u.
Modification = 2'F-ANA at 1 2 4 5 6 9 10 13; result = 56.8 a.u.
Modification = 2'F-ANA at 3 5 6 9 11 12 13; result = 198 a.u.

Other studies, line by line
P1: PafA, mature enzyme, eGFP fusion (Elizabethkingia meningoseptica, UniProt Q9KJX5); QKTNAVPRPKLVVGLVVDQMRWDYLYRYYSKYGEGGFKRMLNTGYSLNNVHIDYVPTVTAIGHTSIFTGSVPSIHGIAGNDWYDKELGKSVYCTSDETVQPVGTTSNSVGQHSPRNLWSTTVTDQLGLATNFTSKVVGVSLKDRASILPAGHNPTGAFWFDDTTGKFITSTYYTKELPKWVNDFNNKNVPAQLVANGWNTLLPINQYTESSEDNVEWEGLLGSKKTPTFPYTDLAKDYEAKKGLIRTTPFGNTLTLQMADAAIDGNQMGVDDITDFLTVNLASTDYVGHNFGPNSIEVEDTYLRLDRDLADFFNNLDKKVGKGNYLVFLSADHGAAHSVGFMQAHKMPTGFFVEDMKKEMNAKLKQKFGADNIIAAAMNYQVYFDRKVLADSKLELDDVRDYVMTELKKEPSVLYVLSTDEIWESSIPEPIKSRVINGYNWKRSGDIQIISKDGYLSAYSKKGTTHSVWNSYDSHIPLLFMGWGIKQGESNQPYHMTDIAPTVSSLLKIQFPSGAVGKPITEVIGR
Molecule = RBMX (Homo sapiens, UniProt P38159); target or system = HNRNPK (Homo sapiens, UniProt P61978); assay = cross-linking MS; setting = hits only; endpoint = interaction screen; result = cross-linked
Molecule = P1 G514A; target or system = vanadate, free oxyanion; assay = microfluidic competitive inhibition; test system = in vitro, cell-free expressed; setting = not given, derived from inhibition constants, unchanged parent 676 nM; how to read = lower = stronger binding; endpoint = oxyanion analog dissociation constant; result = 667 nM
Molecule = ATP5PD (Homo sapiens, UniProt O75947); target or system = ATP5F1B (Homo sapiens, UniProt P06576); assay = cross-linking MS; setting = hits only; endpoint = interaction screen; result = cross-linked
Molecule = SRSF2 (Homo sapiens, UniProt Q01130); target or system = SRSF1 (Homo sapiens, UniProt Q07955); assay = cross-linking MS; test system = cell fractions; setting = with: DSSO; endpoint = cross-linked residues; result = T51 to K30
Molecule = MPHOSPH6 (Homo sapiens, UniProt Q99547); target or system = EXOSC3 (Homo sapiens, UniProt Q9NQT5); assay = cross-linking MS; setting = hits only; endpoint = interaction screen; result = cross-linked

Some of these lines once more (set 2):
Modification = 2'F-ANA at 2 3 5 6 8 9 11 13 14; result = 50 a.u.
Modification = 2'F-ANA at 1 2 4 5 6 9 10 13; result = 56.8 a.u.
Modification = 2'F-ANA at 3 5 6 9 11 12 13; result = 198 a.u.
